Measurements of several laboratories.
Numbers after ± are the reported error.

| Molecule | test | test system | setting | scale | quantity | value |
| --- | --- | --- | --- | --- | --- | --- |
| COC1C=COC2(C)Oc3c(C)c(O)c4c(c3C2=O)C2=NC3(CCN(CC(C)C)CC3)NC2=C(NC(=O)C(C)=CC=CC(C)C(O)C(C)C(O)C(C)C(OC(=O)Nc2cnccn2)C1C)C4=O (centres unmarked) |  | caseum |  |  | fraction unbound | 0.0066 |
| Polymyxin B | ultrafiltration ELISA | human citrate plasma | 1 µg/mL, 10 kDa MMCO filter | reference: positive control | fraction in filtrate | 1% |
| CCCCc1oc2ccccc2c1C(=O)c1cc(I)c(OCCO)c(I)c1 | ultracentrifugation | human liver microsomes 0.25 mg/mL protein | 2 h, pH 7.4 |  | fraction unbound | 0.017 ± 0.001 |
| NC(=O)c1c(F)ccc(OCc2nc3cc(Cl)cnc3s2)c1F | equilibrium dialysis | mouse plasma | 10 µM |  | fraction unbound | 0.15 ± 0.06 |
| COC(=O)c1ccc(/C=N/NS(=O)(=O)c2ccc(OC)c(OC)c2)cc1 | PAMPA-GIT |  | 500 µM, 8 h |  | fraction absorbed | 100% |
| COC1C=COC2(C)Oc3c(C)c(O)c4c(c3C2=O)C2=NC3(CCN(CC(C)C)CC3)NC2=C(NC(=O)C(C)=CC=CC(C)C(O)C(C)C(O)C(C)C(OC(=O)Nc2cccnn2)C1C)C4=O (centres unmarked) | rapid equilibrium dialysis | mouse plasma |  |  | fraction unbound | 0.068 |
| O=C(Cc1ccccc1)Nc1nc2ccccc2n1Cc1ccccc1 |  | human liver microsomes | 0.5 µM, 1 mg/mL protein |  | fraction unbound | 34% |
| CC(C)(Sc1ccncc1-c1ccc(C#N)c2ccccc12)C(=O)OC1OC(C(=O)O)C(O)C(O)C1O (centres unmarked) |  | urine | oral, 15 mg, 72 h, normal renal function | reference: dose | fraction excreted unchanged | 11.7% |
| Nc1ncnc2c1nc(-n1nnc3c1CCC1C(CO)C1CC3)n2C1CC(O)C(CO)O1 (mixture of isomers) | HDM-PAMPA |  | 75 µM, 16 h, ambient |  | fraction absorbed | 21% |
| CC(C)(Sc1cc[n+]([O-])cc1-c1ccc(C#N)c2ccccc12)C(=O)OC1OC(C(=O)O)C(O)C(O)C1O (centres unmarked) |  | urine | oral, 15 mg, 72 h, moderate renal impairment | reference: dose | fraction excreted unchanged | 15% |
| O=c1[nH]c(=O)n(C2OC(CO)C(O)C2O)cc1-n1nnc2c1CCC1C(CO)C1CC2 (mixture of isomers) | HDM-PAMPA |  | 75 µM, 16 h, ambient |  | fraction absorbed | 20% |

For quick reference, copied from above:
| Molecule | test | test system | setting | scale | quantity | value |
| --- | --- | --- | --- | --- | --- | --- |
| CCCCc1oc2ccccc2c1C(=O)c1cc(I)c(OCCO)c(I)c1 | ultracentrifugation | human liver microsomes 0.25 mg/mL protein | 2 h, pH 7.4 |  | fraction unbound | 0.017 ± 0.001 |
